Assay results pooled from the literature.
“And” joins repeats or separate records; there may be more than shown. ± gives the spread as reported.

With `O=C(Nc1ccc(C2CCCCC2)cc1)[C@H]1CC1(F)F` the hepatic clearance was 78 mL/min/kg (hepatocyte stability; cryopreserved mouse hepatocytes; 1 µM).
`CCO`: “maximal mean SBP decrease” 10.6 mmHg (supine; concentration not given, 0 to 4 h; baseline: baseline).
`Cn1cc(-c2ccc(-c3cncc(Cl)c3N3CCC4(CCNC4=O)CC3)cc2)cn1`: “log2 fold change” -2.58 (COLO 205; gene expression, microarray, item: RPSA mRNA; concentration not given, 6 h; baseline: untreated cells).
Under “inhibition of MPO AUC”, `Cc1cnc(N2CC3(CCOCC3)C2)c(C(=O)Nc2ccc(C(=O)N3CCc4cc(C(=O)Nc5c(C)cccc5F)sc4-c4ccccc43)cc2)c1` is recorded as -20% (human, RSV infection, nasal wash; dose not given, ITT-IS population; baseline: placebo).
Under “concentration for aPTT prolongation”, `C[C@@H]1CCC[C@H](n2cnc(-c3cc(Cl)ccc3-n3cc(Cl)nn3)cc2=O)c2cc(ccn2)-c2c(cnn2C(F)F)NC1=O` is recorded as 700 nM (rabbit plasma; IC1.5× aPTT, Actin FS reagent).
`O=C(O)CNC(=O)Cc1ccccc1` gave a sarcomere length of 1.72 µm (ventricular cardiomyocytes, C57BL/6 mouse; dose not given, 0.736 s).
Under “hepatic total cholesterol”, `C[C@H]1O[C@@H](O[C@H]2CC[C@@]3(C)[C@@H](CC[C@]4(C)[C@@H]3C=C[C@]35OC[C@@]6(CCC(C)(C)C[C@H]63)[C@@H](O)C[C@]54C)[C@]2(C)CO)[C@H](O)[C@@H](O[C@@H]2O[C@H](CO)[C@@H](O)[C@H](O)[C@H]2O)[C@H]1O` is recorded as 0.144 mmol/g protein and 0.117 mmol/g protein and 0.127 mmol/g protein and 0.125 mmol/g protein and 0.168 mmol/g protein and 0.129 mmol/g protein (Mus musculus, chronic-plus-binge ethanol-fed, liver; oral, 10 mg/kg/day, 168 h, dosed for 7 days).
For `CN(C)C(=O)Nc1cccc(-c2ccc(N(C)C)cc2)c1`, “change in total fat” read -0.775 g and 0.699 g and 0.475 g and -1.05 g and -1.3 g (MRI; mouse, high-fat diet; dose not given).
Under “ear thickness difference”, `C[C@@H]1C[C@H]2[C@@H]3CCC4=CC(=O)C=C[C@]4(C)[C@@]3(F)[C@@H](O)C[C@]2(C)[C@@]1(O)C(=O)CO` is recorded as -0.221 (BALB/c mice, oxazolone atopic dermatitis; topical, 20 mg/ear, 192 h, day 8, unit not given; baseline: vehicle).
Under “change from baseline”, `NC(=O)c1cnc2[nH]ccc2c1N[C@@H]1[C@@H]2CC3C[C@H]1C[C@@](O)(C3)C2` is recorded as 0.28% (flow cytometry, item: CD8+ effector T cells; Japanese healthy subjects, peripheral blood; oral, 10 mg twice daily, day 7).
`N#Cc1ccn2c(-c3ccncc3)c(-c3ccc(F)cc3)nc2c1`: “log2 fold change” 0.27 (kinase binding, competitor, MIB/MS competition, item: RIO2; Candida albicans cell lysate; 10 µM; baseline: DMSO).
`N#CC[C@H](C1CCCC1)n1cc(-c2ncnc3[nH]ccc23)cn1` — result for “ear thickness difference”: -0.154 (Balb/c mice, oxazolone atopic dermatitis; day 20, unit not given; baseline: vehicle).
`Cn1cc(Nc2nc(N)nc(-c3cccc(-n4ccc5cc(C6CC6)cc(F)c5c4=O)c3CO)n2)cn1` gave an inhibition of 97.3% (CD63 upregulation, anti-IgE-induced; human, multiple ascending dose, whole blood basophils ex vivo; 300 mg twice daily, day 14, 8 h).
`O=C(NCCN1CCCC1=O)c1ccc([C@H]2[C@@H](F)[C@@H](F)C[C@@H](F)[C@H]2F)cc1` gave a hepatic clearance of 10 mL/min/kg (liver microsome stability; cynomolgus liver microsomes; 1 µM).
`N#Cc1ccc2c(-c3ccncc3)c(-c3ccc(F)cc3)nn2c1` — result for “log2 fold change”: 0.429 (kinase binding, competitor, MIB/MS competition, item: HRK1; Candida albicans cell lysate; 100 nM; baseline: DMSO).
The tissue uptake of `CC(C)C[C@H](NC(=O)C[C@H](O)[C@H](CC(C)C)NC(=O)[C@H](Cc1c[nH]cn1)NC(=O)CNC(=O)[C@@H](NC(=O)[C@H](C)NC(=O)[C@H](Cc1c[nH]c2ccccc12)NC(=O)[C@H](CCC(N)=O)NC(=O)[C@@H](Cc1ccccc1)NC(=O)COCCOCCNC(=O)CCC(C(=O)O)N1CCN(CC(=O)O)CCN(CC(=O)O)CCN(CC(=O)O)CC1)C(C)C)C(N)=O` (stereo partly shown) [lutetium-177 labelled] is reported as 3.8 ± 0.4 %ID/g (BALB/c nu/nu mice, female, pancreas; 50 pmol, 1 h, added: PBS co-injection).
The maximum reduction of `O[C@H]1CCCN[C@@H]1CCCn1cnc2c(Cl)c(Cl)ccc21` is reported as 10.1% (ELISA, item: Pro-C6; healthy human volunteers, serum; intraduodenal, 50 mg twice daily, day 14, multiple ascending dose).
`OC(CCN1CCCCC1)(c1ccccc1)C1CC2C=CC1C2` (stereo not shown): “EEG Beta2-power Pz-O2” 0.9 µV² (resting-state EEG; healthy elderly humans; oral, 2 mg, eyes open, LS mean).
`COc1cc(Nc2nccc(Nc3ccc4c(C)n[nH]c4c3)n2)cc(OC)c1OC` gave a selectivity of 1.6 (Trypanosoma brucei; unit not given; baseline: pEC50 T. brucei minus pTC50 HepG2).
The IC50 of `CN1CC(Oc2cnc(C#N)cc2-c2ccn3nc(NC(=O)C4CC4)cc3c2)C1` is reported as 0.39 µM (TNF release; C57BL/6 mouse, LPS challenge, plasma; oral, 1 and 80 mg/kg, dosed 1 h before LPS).
For `Cc1ccc(C(=O)OCc2ccc([C@@H](CN)C(=O)Nc3ccc4cnccc4c3)cc2)c(C)c1`, the IOP was 16.8 mmHg (tonometry; Macaca cyclopis, ocular normotensive; ocular, 0.02%, 8 h).
`CCN(Cc1nc2c(N)nc3cc(-c4cc[nH]n4)ccc3c2[nH]1)C(C)=O`: “decrease in skin lesions” ~57% (human; 2000 µg; baseline: baseline).
With `CC(C)CC(=O)Nc1[nH]nc2c1CN(C(=O)C1CCN(C)CC1)C2(C)C` the EC50 was 1.88 ± 0.332 µM (Trypanosoma brucei; cell growth).
The inhibition of `CSCCNc1nc(SCCC(F)(F)F)nc2c1ncn2[C@@H]1O[C@H](COP(=O)(O)OP(=O)(O)C(Cl)(Cl)P(=O)(O)O)[C@@H](O)[C@H]1O` is reported as 17 ± 17% (platelet aggregation, light transmission aggregometry; human patients, platelet-rich plasma; dose not given, 1 h, added: TRAP 15 µM).
For `CCOc1c([C@H](C)n2nc(C)c3c(N)ncnc32)cc(Cl)c(F)c1[C@@H]1CNC(=O)C1`, “plasma protein level change” read -38% (Olink proximity extension proteomics, item: CD160; human FL or MZL patients, plasma; dose not given, week 8; baseline: baseline).
`C[C@H]1C[C@H]2CSC(N)=N[C@@]2(c2nc(NC(=O)c3ccc(OC(F)F)cn3)cs2)CO1` — result for “percent change from baseline”: -57.5% (item: Aβ1-40; healthy adults, plasma; 12 mg single dose, 4 h post-dose; baseline: placebo).
`c1ccc(-c2n[nH]cc2-c2ccnc3ccccc23)nc1` — result for “log2 fold change”: 1.33 (kinase binding, competitor, MIB/MS competition, item: YPK1; Candida albicans cell lysate; 100 nM; baseline: DMSO).
`CC(C)C[C@@H](C=O)NC(=O)[C@H](CC(C)C)NC(=O)[C@H](CC(C)C)NC(=O)OCc1ccccc1` — result for “degradation rate constant”: 0.0021 min⁻¹ (item: Ub(G76V)-GFP; 10 µM).
`N#Cc1ccc2c(c1)[C@H]1CCCN(C(=O)c3ccc4[nH]cnc4c3)[C@H]1C2` — result for “change from baseline”: -8.38 mg/dL (item: LDL; human, Phase II trial; oral, 240 mg once daily, day 28, adjusted mean, SE).
`NC/C(=C\F)COc1cccc(Cn2c(=S)[nH]c(=O)c3[nH]cnc32)c1` has an exudate volume of 3 mL and 2 mL and 3.2 mL and 2.8 mL and 2.6 mL and 3.3 mL (Mus musculus, carrageenan air pouch exudate; 10 mg/kg, 12 h, λ-carrageenan-induced oedema).
The k3 of `O=C(OC(C(F)(F)F)C(F)(F)F)N1CCN(Cc2cccc(Oc3ccccc3)c2)CC1` is reported as 0.039 min⁻¹ (PET blocking study; rhesus monkey, brain CB; 0.03 mg/kg, compound pretreatment, added: [18F]T-401 tracer).
`O=C1Nc2cc3[nH]nc(-c4ccncc4)c3cc2CN1Cc1ccccc1` — result for “progressive disease, best response”: 100% (RECIST v1.1; human, relapsed or refractory advanced solid tumours; intravenous, 4.8 mg/kg, pooled schedules).
With `CN(C(=O)n1cnc(-c2ccc[n+]([O-])c2)c1)C1CCCCC1` the AUC(0-t) was 214 ng·h/mL (item: OEA; human, plasma; 0.25 mg single dose).
`Cc1n[nH]c2ccc(-c3cc(OC[C@@H](N)Cc4ccccc4)cnc3-c3ccoc3)cc12` — result for “log2 fold change”: -5.4 (kinase binding, competitor, MIB/MS competition, item: AKL1; Candida albicans cell lysate; 10 µM; baseline: DMSO).
`C[C@H](Oc1ccc(Br)cc1-c1ccon1)C(=O)O`: “difference from placebo” -0.483 kg (maximum voluntary grip contraction, handgrip dynamometry; healthy human; 800 mg, SAD).
`COc1cc(Nc2ncc3c(n2)-c2ccc(Cl)cc2C(c2c(F)cccc2OC)=NC3)ccc1C(=O)O`: “median response score” 2 (mouse, NB-EBc1 neuroblastoma xenograft; 5.2 mg/kg; direction not given).
For `COc1ccccc1[C@H](Cn1c(=O)n(C(C)(C)C(=O)O)c(=O)c2c(C)c(-c3ncco3)sc21)OC1CCOCC1`, “fractional hepatic DNL” read 5.32 % new palmitate ([1-13C]acetate infusion, isotopomer analysis; overweight or obese healthy men, plasma VLDL-TG palmitate; oral, 50 mg single dose, 3 h post-dose, added: oral fructose).
For `O=C(O)CNS(=O)(=O)C(F)(F)C(F)(F)C(F)(F)C(F)(F)C(F)(F)C(F)(F)C(F)(F)C(F)(F)F`, “state 3 respiration” read “inhibited” (polarographic respiration; isolated rat liver mitochondria; above 20 µM).
`CC(C)NCC(O)c1ccc(O)c(O)c1` (stereo not shown) has a sarcomere length of 1.61 µm (ventricular cardiomyocytes, C57BL/6 mouse; dose not given, 0.14 s).
`CCN1[C@@H](C(=O)NC23CCC(C(=O)O)(CC2)CC3)[C@H](c2cccc(Cl)c2F)[C@]2(C(=O)Nc3cc(Cl)ccc32)C12CCCCC2`: “serum MIC-1 (GDF-15) level” “increased” (patients with advanced solid tumours; 100 mg, 24 h after dose; baseline: before dosing).

Repeated from above:
For `Cc1ccc(C(=O)OCc2ccc([C@@H](CN)C(=O)Nc3ccc4cnccc4c3)cc2)c(C)c1`, the IOP was 16.8 mmHg (tonometry; Macaca cyclopis, ocular normotensive; ocular, 0.02%, 8 h).
`CCN(Cc1nc2c(N)nc3cc(-c4cc[nH]n4)ccc3c2[nH]1)C(C)=O`: “decrease in skin lesions” ~57% (human; 2000 µg; baseline: baseline).
With `CC(C)CC(=O)Nc1[nH]nc2c1CN(C(=O)C1CCN(C)CC1)C2(C)C` the EC50 was 1.88 ± 0.332 µM (Trypanosoma brucei; cell growth).
